Experimental data collected from several papers.
Each line is one published result; not all experiments were run side by side. ± marks the error that the study gave.

SMILES | organism | assay | test system | setting | MIC
CC(=O)NC1C(OC2OC(CC(O)C3OC(n4ccc(=O)[nH]c4=O)C(O)C3O)C(O)C(O)C2NC(=O)C=CCCCCCCCCCC(C)C)OC(CO)C(O)C1O (stereo not shown) | Streptococcus salivarius | – | ATCC 7752 | – | > 50 µg/mL
CC(C)C[C@@H]1NC(=O)[C@H](C)NC(=O)[C@H](NC(=O)[C@H](CO)NC(=O)[C@@H](CCCCN)NC(=O)[C@@H](CC(C)C)NC(=O)[C@H](C)N)[C@H](C(N)=O)OC(=O)[C@H](CC(C)C)NC1=O | Bacillus subtilis Staphylococcus epidermidis | – | ATCC 14990 | tested as TFA salt | 8 to 16 µg/mL
[O-][N+]1=C(c2ccsc2)C2=NCCCN2c2ccccc21 | Clostridium sporogenes | microbial growth | ATCC3584 | – | 1 µg/mL
Cc1ccccc1C(=O)NN=Cc1ccc(O)c(Br)c1 | Cryptococcus neoformans | microbial growth | – | – | 1 µg/mL
C=C(NC(=O)C(=C)NC(=O)c1csc(C2=NC3c4csc(n4)C4NC(=O)c5csc(n5)C(C(C)(O)C(C)O)NC(=O)C5CSC(=N5)C(=CC)NC(=O)C(C(C)O)NC(=O)c5csc(n5)C3(CC2)NC(=O)C(C)NC(=O)C(=C)NC(=O)C(C(C)C)NC2C=Cc3c(C(C)O)cc(nc3C2O)C(=O)OC4C)n1)C(N)=O (stereo not shown) | Bacillus sp. | broth microdilution | ATCC 27859 | 18 h, 37 °C | > 5 µg/mL
CC(C)[C@H](NC(=O)[C@H]1NC(=O)[C@H](CO)NC(=O)[C@H](CC(N)=O)NC(=O)[C@@H](N)Cc2c[nH]c3cc(ccc23)C1C(N)=O)C(=O)N[C@H]1Cc2cn(cn2)C(c2ccc(O)cc2)[C@@H](C(=O)N[C@@H](CCCNC(=N)N)C(=O)N[C@@H](Cc2ccccc2)C(=O)O)NC(=O)[C@H](CO)NC1=O (stereo partly shown) | Photorhabdus australis | – | DSM 17609 | – | > 128 µg/mL
CN[C@@H]1[C@H](O)[C@H](NC)[C@H]2O[C@]3(O)[C@H](O[C@@H]2[C@H]1O)O[C@H](C)C[C@@]3(O)CNCc1ccc(F)cc1 | Streptococcus pneumoniae | – | R6 drug sensitive | – | 3 µg/mL
C[C@@H](c1ccn(Cc2ccc(Cl)cc2Cl)n1)[C@](O)(Cn1cnnn1)c1ccc(F)cc1F | Candidozyma auris | microbial growth | D12 | 24 h, drug-resistant strain, clinical isolate | 16 µg/mL
CC(C)C[C@@H]1NC(=O)[C@H](C)NC(=O)[C@H](NC(=O)[C@H](CO)NC(=O)[C@@H](CCCCN)NC(=O)[C@@H](CC(C)C)N(C)C(=O)[C@@H](N)Cc2ccccc2)[C@H](C)OC(=O)[C@H](CC(C)C)NC1=O | Bacillus subtilis Staphylococcus epidermidis | – | ATCC 14990 | tested as TFA salt | > 32 µg/mL
C[C@@H](c1ccn(Cc2ccc(Cl)c(Cl)c2)n1)[C@](O)(Cn1cnnn1)c1ccc(F)cc1F | Candidozyma auris | microbial growth | D12 | 24 h, drug-resistant strain, clinical isolate | 2 µg/mL
CC[C@@H](C)[C@@H](NC(=O)[C@@H](C)NC(=O)[C@@H](CCCCN)NC(=O)[C@@H](CC(C)C)NC(=O)[C@@H](C)NC(=O)[C@H](NC(=O)[C@@H](Cc1c[nH]cn1)NC(=O)[C@@H](CC(C)C)NC(=O)[C@H](NC(=O)[C@H](NC(=O)[C@@H](CCCCN)NC(=O)[C@@H](CCCCN)NC(=O)[C@@H](C)NC(=O)[C@@H](CO)NC(=O)[C@@H](CCCCN)NC(=O)[C@@H](Cc1ccccc1)NC(=O)[C@H](NC(=O)[C@@H](CCCCN)NC(=O)[C@@H](CC(C)C)NC(=O)[C@@H](Cc1ccccc1)NC(=O)[C@@H](CO)NC(=O)[C@@H](CCCCN)NC(=O)[C@@H](Cc1c[nH]c2ccccc12)NC(=O)[C@@H](CCCCN)NC(C)=O)[C@H](C)O)[C@H](C)O)C(C)C)[C@H](C)O)C(=O)N[C@H](CO)C(=O)N[C@H](CO)C(N)=O | Acinetobacter baumannii | – | 759, Mueller-Hinton broth | 24 h, 37 °C | 1.5 µM
CC[C@H](C)[C@H](NC(=O)[C@H](Cc1ccccc1)NC(=O)[C@H](CCC(N)=O)NC(=O)[C@H](CCSC)NC(=O)[C@@H](NC(=O)[C@H](CCC(N)=O)NC(=O)[C@H](CCCCN)NC(=O)[C@H](Cc1ccc(O)cc1)NC(=O)[C@H](Cc1ccccc1)NC(=O)[C@H](CCCCN)NC(=O)[C@H](CCCCN)NC(=O)[C@@H](NC(=O)[C@H](Cc1ccccc1)NC(=O)[C@@H]1CCCN1C(=O)[C@H](Cc1c[nH]c2ccccc12)NC(=O)CNC(=O)[C@H](Cc1ccccc1)NC(=O)[C@H](CCCCN)NC(=O)[C@H](C)NC(=O)[C@@H](NC(=O)[C@H](CC(C)C)NC(=O)[C@H](CCCCN)NC(=O)[C@H](C)NC(=O)[C@H](CCCNC(=N)N)NC(=O)[C@H](C)NC(=O)CNC(=O)[C@@H](N)CCSC)C(C)C)[C@@H](C)CC)[C@@H](C)CC)C(=O)NCC(=O)N[C@@H](CCC(N)=O)C(=O)NCC(=O)N[C@@H](Cc1c[nH]c2ccccc12)C(=O)N[C@H](C(=O)N[C@H](C(=O)N[C@@H](CC(=O)O)C(=O)N[C@@H](CCC(N)=O)C(=O)N[C@H](C(=O)N[C@@H](CCC(=O)O)C(=O)N[C@@H](CCCCN)C(=O)N[C@@H](Cc1c[nH]c2ccccc12)C(=O)N[C@@H](CC(C)C)C(=O)N[C@@H](CCCCN)C(=O)N[C@@H](CCCNC(=N)N)C(=O)N[C@@H](Cc1c[nH]cn1)C(=O)O)[C@@H](C)CC)[C@@H](C)CC)[C@@H](C)O | Bacillus subtilis subsp. subtilis | – | ATCC 23857 | 10 h | 6.1 ± 0.2 µM
CC[C@H](C)[C@H](NC(=O)[C@H](CCCCN)NC(=O)[C@H](CC(N)=O)NC(=O)[C@H](Cc1c[nH]c2ccccc12)NC(=O)[C@H](Cc1ccccc1)NC(=O)[C@H](CCCCN)NC(=O)[C@H](CCCNC(=N)N)NC(=O)[C@H](CC(C)C)NC(=O)[C@H](Cc1c[nH]c2ccccc12)NC(=O)[C@H](CCCCN)NC(=O)[C@H](CCCNC(=N)N)NC(=O)[C@H](CC(C)C)NC(=O)CNC(C)=O)C(=O)N[C@@H](CCCCN)C(=O)N[C@@H](CCCNC(=N)N)C(N)=O | Citrobacter freundii | bacterial growth, broth microdilution | multidrug-resistant | – | 3.12 µM
CC[C@H](C)[C@@H]1NC(=O)[C@H](CC(C)C)NC(=O)[C@@H](NC(=O)[C@H](CO)NC(=O)[C@H](CCCNC(=N)N)NC(=O)[C@@H](N)CO)CSSC[C@@H](C(=O)N[C@@H](CCC(N)=O)C(=O)N[C@@H](CCCNC(=N)N)C(=O)N[C@@H](CC(C)C)C(=O)N[C@@H](Cc2ccccc2)C(N)=O)NC(=O)[C@H](C(C)C)NC1=O | Candidozyma auris | broth microdilution | DSM 21092 | – | 27 µg/mL
CC(C)[C@@H]1NC(=O)[C@@H](C(C)C)NC(=O)[C@@H](NC(=O)CCCCCCCCCCCNC(=N)N)[C@@H](C)OC(=O)[C@@H](C)NC(=O)[C@@H](CC(N)=O)NC(=O)[C@@H]([C@@H](C)O)NC1=O | Gram-positive bacteria | – | – | – | 8 µg/mL
CN(Cc1cc(C2CC2)on1)C(=O)c1cccc(-c2ccc3c(c2)CCO3)c1 | Cryptococcus neoformans | – | sgf29∆ mutant | – | > 64 µg/mL
CO[C@H]1CC(O)=C2C(=O)c3c(cc(C)c(-c4c(C)cc5c(c4O)C(=O)C4=C(O)C[C@H](OC)[C@@H](O)[C@]4(C)O5)c3O)O[C@@]2(C)[C@@H]1O | Alternaria brassicicola | microbial growth | BCC | – | 5.1 µM
COc1ccc(C2=[N+]([O-])c3ccccc3N3CC(C)(C)CN=C23)cc1 | Cutibacterium acnes | microbial growth | – | – | 16 µg/mL
CC[C@H](C)[C@H](NC(=O)[C@H](CCCCN)NC(=O)[C@H](CC(N)=O)NC(=O)[C@H](Cc1c[nH]c2ccccc12)NC(=O)[C@H](Cc1ccccc1)NC(=O)[C@H](CCCCN)NC(=O)[C@H](CCCCNC(=N)N)NC(=O)[C@H](CC(C)C)NC(=O)[C@H](Cc1c[nH]c2ccccc12)NC(=O)[C@H](CCCCN)NC(=O)[C@H](CCCCNC(=N)N)NC(=O)[C@H](CC(C)C)NC(=O)CNC(C)=O)C(=O)N[C@@H](CCCCN)C(=O)N[C@@H](CCCCNC(=N)N)C(N)=O | Enterobacter aerogenes | broth microdilution | multidrug-resistant | – | 6.25 µM
[O-][N+]1=C(Cc2ccccc2)C2=NCCCN2c2ccccc21 | Prevotella intermedia/nigrescens | – | ATCC 25611 | – | 1 µg/mL
CC[C@H](C)[C@H](NC(=O)[C@H](CO)NC(=O)[C@H](CO)NC(=O)[C@H](Cc1ccccc1)NC(=O)CN)C(=O)N[C@@H](Cc1ccccc1)C(=O)N[C@@H](CCCNC(=N)N)C(=O)NCC(=O)N[C@H](C(=O)N[C@@H](C)C(=O)N[C@@H](CCCCN)C(N)=O)C(C)C | Escherichia coli | – | ATCC 8739 | together with: 2.5 mM CaCl2 | > 128 µM
C[C@@H](c1ccn(Cc2ccc(OC(F)(F)F)cc2)n1)[C@](O)(Cn1cnnn1)c1ccc(F)cc1F | Candidozyma auris | microbial growth | 887 | 24 h, drug-resistant strain, clinical isolate | 2 µg/mL
O=C(/C=C/CBr)O[C@@H]1COC(=O)C1 | Vibrio harveyi | – | BB120 | – | 125 µM
C[N+]1=C2C(c3ccccc3)=[N+]([O-])c3ccccc3N2CCC1 | Cutibacterium acnes | microbial growth | – | – | 16 µg/mL
CN[C@@H]1[C@H](O)[C@H](NC)[C@H]2O[C@]3(O)[C@H](O[C@@H]2[C@H]1O)O[C@H](C)C[C@@]3(O)CNCc1ccc(OC(F)(F)F)cc1 | Streptococcus pneumoniae | – | Daw27 drug resistant | – | 3 µg/mL

Excerpt of the above:
SMILES | organism | assay | test system | setting | MIC
CC(=O)NC1C(OC2OC(CC(O)C3OC(n4ccc(=O)[nH]c4=O)C(O)C3O)C(O)C(O)C2NC(=O)C=CCCCCCCCCCC(C)C)OC(CO)C(O)C1O (stereo not shown) | Streptococcus salivarius | – | ATCC 7752 | – | > 50 µg/mL
CC(C)C[C@@H]1NC(=O)[C@H](C)NC(=O)[C@H](NC(=O)[C@H](CO)NC(=O)[C@@H](CCCCN)NC(=O)[C@@H](CC(C)C)NC(=O)[C@H](C)N)[C@H](C(N)=O)OC(=O)[C@H](CC(C)C)NC1=O | Bacillus subtilis Staphylococcus epidermidis | – | ATCC 14990 | tested as TFA salt | 8 to 16 µg/mL
[O-][N+]1=C(c2ccsc2)C2=NCCCN2c2ccccc21 | Clostridium sporogenes | microbial growth | ATCC3584 | – | 1 µg/mL
Cc1ccccc1C(=O)NN=Cc1ccc(O)c(Br)c1 | Cryptococcus neoformans | microbial growth | – | – | 1 µg/mL
